Published values from different studies.
Several values in a cell are separate wells, animals, samples, runs or records. ± marks the error that the study gave.

Cc1cccc(Cn2ncc3c4cc(F)c(CN(C)C)cc4n(C)c3c2=O)n1 — result for plasma concentration: “not detected” (Dutch-belted rabbit, plasma; intravitreal, 1 µM vitreous, 2.00 days).
For CCCCCCCOc1ccc(CC[C@](N)(CO)COP(=O)(O)O)cc1C(F)(F)F, the Tmax was 8 h (healthy male humans, plasma; 0.125 mg amiselimod, day 21, median).
With O=C(Nc1cnccc1-c1ccc([18F])nc1)c1ccnc(NC(=O)C2CC2)c1 the mean SUV was 0.075 (ex vivo gamma counting; FVB/NJ mice, both sexes, brain stem; intravenous, 120 min, together with: tariquidar 15 mg/kg iv).
O=C(Nc1ccc(-c2nnc(-c3ccccn3)nn2)nc1)c1ccc(-c2cn(CCOCCOCCOCC[18F])nn2)cc1 — result for “tumour to muscle ratio”: 1.5 (BALB/c nude mouse, LS174T xenograft; intravenous, 1 h, together with: CC49-TCO 72 h before).
C[C@H](C(=O)O)c1ccc(-c2ccccc2)c(F)c1 — result for “relative change of HPLC peak area”: 1.27% (HPLC; solution; concentration not given, 10 h, room temperature).
The tumour-to-heart ratio of COc1cccc(OC)c1-c1cc(C(=O)NC2(C(=O)O)C3CC4CC(C3)CC2C4)nn1-c1ccc(C(=O)N(C)CCCN(C)C(=O)[C@H](CCCCNC(=O)[C@H](CC(C)C)NC(=O)C2OC2C(=O)O)NC(=O)CN2CCN(CC(=O)[O-])CCN(CC(=O)[O-])CCN(CC(=O)[O-])CC2)cc1C(C)C.[177Lu+3] (mixture of isomers) is reported as 31.8 (mouse, HT-29 xenograft; 72 h post injection, biodistribution; relative to: tumour over heart uptake).
C=CC(=O)Nc1cc(Nc2nccc(-c3c[nH]c4ccccc34)n2)c(OC)cc1N(C)CCN(C)C gave a recovery of 107% (storage stability; human dried blood spot; 2 h, -80 °C, HQC level).
The distribution half-life of Cc1n[nH]c(C)c1CCCOc1cc(C(=O)NCCCCC(NC(=O)CN2CCN(CC(=O)[O-])CCN(CC(=O)[O-])CCN(CC(=O)[O-])CC2)C(=O)NCC2CCC(C(=O)NC(Cc3ccc4ccccc4c3)C(=O)NCCCCC(NC(=O)NC(CCC(=O)O)C(=O)O)C(=O)O)CC2)ccc1F.[177Lu+3] (stereo not drawn) is reported as 1.64 min (BALB/c mouse, blood; intravenous).
The tumour-to-tissue ratio of CCCC[C@H](NC(=O)CNC(=O)CNC(=O)[C@H](CCCCNC(=O)C(C)c1ccc(CC(C)C)cc1)NC(=O)CN1CCN(CC(=O)O)CCN(CC(=O)O)CCN(CC(=O)O)CC1)C(=O)N[C@H]1CC(=O)NCCCC[C@@H](C(N)=O)NC(=O)[C@H](Cc2c[nH]c3ccccc23)NC(=O)[C@H](CCCNC(=N)N)NC(=O)[C@@H](Cc2ccccc2)NC(=O)[C@H](Cc2c[nH]cn2)NC1=O (stereo partly drawn) [lutetium-177 labelled] is reported as 1.08 (C57 mice, tumour; 2 h; relative to: kidney).
N=C(N)NCCC[C@@H]1NC(=O)[C@H](CO)NC(=O)[C@@H](NC(=O)[C@H](CO)NC(=O)[C@H](CO)NC(=O)[C@H](Cc2c[nH]c3ccccc23)NC(=O)CNC(=O)[C@H](CO)NC(=O)[C@@H](N)Cc2c[nH]c3ccccc23)CSSC[C@@H](C(=O)NCC(=O)O)NC(=O)[C@H](CO)NC1=O: “volume of distribution (Vz)” 337 L (patients, plasma; intravenous, 10 mg/kg, thrice weekly, median).
O=C(Nc1cnccc1-c1ccc([18F])cc1)c1ccnc(NC(=O)C2CC2)c1 has an SUV of 7.79 (ex vivo gamma counting; GSK-3β transgenic mice, early-stage, urine; intravenous, 120 min, mean, P-gp inhibitor pretreatment, together with: tariquidar 15 mg/kg iv).
C=C(NC(=O)c1csc(-c2nc3c(cc2O)-c2nc(cs2)C(=O)NC(C(C)O)C(=O)NC(=C(C)OC)c2nc(cs2)C(=O)NC2c4nc(cs4)C(=O)NC(COC(=O)c4c5c6c(cccc6n4O)COC(=O)C(OC4CC(C)(O)C(N(C)C)C(C)O4)C2OC5)c2nc-3cs2)n1)C(N)=O (stereo not drawn) gave a Vz/F of 24300 mL/kg (Sprague-Dawley rat, both sexes, plasma; intravenous infusion, 6 mg/kg, multiple doses, day 1).
CCc1cnc(NC(=O)c2cc(S(=O)(=O)N3CCOCC3)ccc2N(C)C2CCCC2)s1 has a GGT of 1 IU/L (mouse, serum; 10 mg/kg, 3 doses).
With CC(=O)N([O-])CCCCCNC(=O)CCC(=O)N([O-])CCCCCNC(=O)CCC(=O)N([O-])CCCCCN.[89Zr+4] the tracer uptake was 0.05 %ID/g (mouse, heart; 4 h).
The tumour-to-heart ratio of COc1cccc(OC)c1-c1cc(C(=O)NC2(C(=O)O)C3CC4CC(C3)CC2C4)nn1-c1ccc(C(=O)N(C)CCOCCOCCN(C)C(=O)[C@H](CCCCNC(=O)[C@H](CC(C)C)NC(=O)C2OC2C(=O)O)NC(=O)CN2CCN(CC(=O)[O-])CCN(CC(=O)[O-])CCN(CC(=O)[O-])CC2)cc1C(C)C.[177Lu+3] (mixture of isomers) is reported as 7.5 (mouse, HT-29 xenograft; 24 h post injection, biodistribution; relative to: tumour over heart uptake).
The SUV of Cc1nc(N)nc2c1C(=O)N[C@@H](c1ccc(F)cc1-c1cccc(O[11CH3])n1)C2 is reported as 1.6 ± 0.2 (ex vivo biodistribution; mice, U87 subcutaneous xenograft, kidneys; 60 min post-injection, baseline, vehicle pre-treatment).
O=C(CN1CCN(CC(=O)NCc2ncccc2O)CCN(CC(=O)NCc2ncccc2O)CCN(CC(=O)NCc2ncccc2O)CC1)NCc1ncccc1O.[177Lu+3] has a tissue uptake of 0.079 ± 0.026 % injected dose/g (Sprague-Dawley rat, bone; intravenous (tail vein), dose not given, 2 h).
C=CC(=O)Nc1cc(Nc2nccc(-c3cn(C)c4ccccc34)n2)c(OC)cc1N(C)CCNC has a recovery of 103% (storage stability; human dried blood spots; 24 h, -80 °C, low QC level).
With CC(C)OCCOCc1ccc(OCC(O)CN(N=O)C(C)C)cc1 (stereo not drawn) the fold change was 2.4 (duplex sequencing, refers to: mutation frequency; NMRI mouse, bone marrow; oral, 845 mg/kg/day, 4 weeks; relative to: vehicle).
C=Cc1c(C)c2cc3nc(c(CC(=O)OCCOCCOCCOC)c4[nH]c(cc5nc(cc1[nH]2)C(C)=C5CC)c(C)c4C(=O)OCCOCCOCCOC)[C@@H](CCC(=O)OCCOCCOCCOC)[C@@H]3C has a compound loss of 100% (LC-MS; methanol-water 9:1; 4 h, pH 2.0).
Under “grade ≥3 treatment-related AEs”, COCC1CN(C2CCN(c3cc(OC)c(Nc4ncc(Br)c(Nc5ccc6c(c5P(C)(C)=O)OCCO6)n4)cc3C)CC2)C1 is recorded as 16.7% (EGFR-mutant NSCLC patients; oral, 150 mg once daily).
The uptake ratio of COc1ccc(Nc2nc(Nc3ccc(OCCOCCOCC[18F])cc3)ncc2Br)cc1 is reported as 1.11 (ICR mice, S180 tumour; intravenous, 370 kBq, 120 min; relative to: tumour over bone).
For O=C(NS(=O)(=O)c1cccs1)c1cc2ccccc2n1Cc1ccc(Br)c2ccccc12, the body weight was 31.6 g and 33.2 g and 28 g and 31.4 g and 35.4 g (KM mouse, chronic hyperuricaemia model; dose not given, day 13).
For Cc1cc(C)n(CCN(CCN)CCCCCCNC(=O)[C@@H](N)Cc2c[nH]cn2)n1.[99Tc+].[C-]#[O+].[C-]#[O+].[C-]#[O+], the tumour-to-tissue ratio was 7.6 (BALB/c nude mice A549 xenograft; intravenous, 24 h; relative to: tumour over bone).
For CCCCN1C(=O)c2cccc3c(NCCCCCCCCCCN4CCOCC4)ccc(c23)C1=O, the fluorescence lifetime was 8.4 ns (methanol).
With CC[C@H](C)[C@@H]1NC(=O)[C@H](Cc2ccc(O)cc2)NC(=O)CCCSC[C@@H](C(=O)N(CC(=O)N[C@@H](CC(C)C)C(=O)NCC(N)=O)Cc2ccc(F)cc2)NC(=O)[C@H](CC(N)=O)NC(=O)[C@H](CCC(N)=O)NC1=O the Cmax was 0.466 ng/mL (human, plasma; intravenous, 20 µg, infusion).
COC1CN([C@H]2CC[C@H]([C@@]3(C)Oc4c(Cl)cc(C(=O)NCc5c(SC)cc(C)[nH]c5=O)c(C)c4O3)CC2)C1 has an AUC(0-t) of 2010 ng·h/mL (female CB17 SCID mice, KARPAS-422 xenograft, plasma; 25 mg/kg, day 12).
C[N+](C)(CCOCCOCCOCCNC(=S)Nc1ccc(C[C@H]2CN(CC(=O)[O-])CCN(CC(=O)[O-])CCN2CC(=O)[O-])cc1)C[c-]1cccc1.[64Cu+2].[Fe+2].c1cc[cH-]c1 has a tumour uptake of 3.1 ± 0.6 %ID/g (pretargeted biodistribution; nude mouse, BxPC-3 xenograft tumour; 8 h post injection, 72 h lag time).
With CNCc1ccc(-c2cc(=O)c3ccc4[nH]c(C(F)(F)F)nc4c3o2)cc1 the t1/2 was 50.4 min (ICR mice, plasma; intravenous, 2 mg/kg).
With CC(C)C[C@H](NC(=O)[C@@H](CCCCNC(=O)[C@@H](Cc1ccccc1)NC(=O)CCCCCCCNC(=O)CN1CCN(CC(=O)O)CCN(CC(=O)O)CCN(CC(=O)O)CC1)NC(=O)[C@H](Cc1ccc(O)cc1)NC(=O)[C@H](CO)NC(=O)[C@H](Cc1c[nH]c2ccccc12)NC(=O)[C@H](Cc1c[nH]cn1)NC(=O)[C@@H]1CCC(=O)N1)C(=O)N[C@@H](CCCNC(=N)N)C(=O)N1CCC[C@H]1C(=O)NCC(N)=O [indium-111 labelled] the tumour-to-tissue ratio was 3.26 (male athymic nude mice, DU-145 prostate cancer xenograft, tumour; intravenous, 0.037 MBq, 1 h; relative to: tumour over muscle).
The MRT(0-inf) of O=C(c1ccccc1)N1C(c2ccc(OCC3CCN(CCCF)C3)cc2)c2ccc(O)cc2CC12CC2 (stereo not drawn) is reported as 4.17 h (C57BL/6J mouse, plasma; oral, 25 mg/kg).
NS(=O)(=O)c1c(F)c(F)c(Sc2nc3ccccc3s2)c(F)c1F has a pKa of 7.83 (sulfonamide group).
CN1CCC[C@]1(C)/C=C/S(=O)(=O)NC(=O)Nc1c2c(cc3c1CC(O)C3)CCC2 (stereo partly drawn) — result for “Tmax at first steady-state dose”: 4 h (human, plasma; oral, 100 mg twice daily of parent drug, day 14, metabolite of dosed drug).
CNc1nc(N)nc2c1ncn2C1OC(CO)C(O)C1(C)F (stereo not drawn): “Cmax, geometric mean” 922 ng/mL (healthy adult humans, plasma; oral, 550 mg once daily, day 6, fasted, given alone).
CCC[C@H]1CC[C@H](c2ccc(NC(=S)NC[C@@H]3[C@@H](O)[C@@H](O)[C@H]4[C@H](O)CCCN43)cc2)CC1 gave an AST of 223 ± 157 U/L (NOD-SCID mouse, serum; ip, 30 mg/kg).
For COc1ccc2c(c1)CCn1c[n+]3c(c1-2)-c1ccc(OC)cc1CC3, the Neutrophils was 67.6 ± 10.6% (female NSG mice, blood; 6 mg/kg, day 20, 5 days per week).
The AUMC(0-inf) observed of Cc1nn(-c2nc3c(F)cc(F)cc3s2)c(O)c1C(c1ccc(C(F)(F)F)cc1)c1c(C)nn(-c2nc3c(F)cc(F)cc3s2)c1O is reported as 1.46e+06 h²·ng/mL and 3.09e+06 h²·ng/mL and 1.61e+06 h²·ng/mL (ICR mouse, plasma; oral, 50 mg/kg).
Under “cysteine adduct formation”, C#CC1(NC(=O)C(CC(C)(C)F)NC(c2ccc(-c3ccc(S(C)(=O)=O)cc3)cc2)C(F)(F)F)CC1 (stereo not drawn) is recorded as < 1% (MES buffer; 100 µM, 23 h, pH 5.5, 37 °C, together with: cysteine 10 mM).
CN1CCCNC(=O)c2cccc(c2)C(=O)NCCCN(C)CCCNc2cccc3c2C(=O)c2cccc(c2C3=O)NCCC1 gave an ALT of 29.3 IU/L (mice, serum; dose not given).
The tracer uptake of [123I]c1ccc2nc(-c3ccc(-n4ccnn4)nc3)cn2c1 is reported as 0.997 %ID/g (male Wistar rat, stomach; intravenous, 4 MBq, 3 h).
CN([O-])C(=O)CN1CCNCCN(CC(=O)N(C)[O-])CC1.[89Zr+4] gave a tracer uptake of 0.04 %ID/g (mouse, blood; intravenous, 24 h).
CC(C(=O)O)n1nc(Cn2cc3cc(OCC[18F])c(Cl)cc3n2)c2ccccc2c1=O (racemic) gave a tissue uptake of 0.25 ± 0.08 %ID/g (Sprague-Dawley rat male, pancreas; 5 min).

Excerpt of the above:
C[N+](C)(CCOCCOCCOCCNC(=S)Nc1ccc(C[C@H]2CN(CC(=O)[O-])CCN(CC(=O)[O-])CCN2CC(=O)[O-])cc1)C[c-]1cccc1.[64Cu+2].[Fe+2].c1cc[cH-]c1 has a tumour uptake of 3.1 ± 0.6 %ID/g (pretargeted biodistribution; nude mouse, BxPC-3 xenograft tumour; 8 h post injection, 72 h lag time).
COC1CN([C@H]2CC[C@H]([C@@]3(C)Oc4c(Cl)cc(C(=O)NCc5c(SC)cc(C)[nH]c5=O)c(C)c4O3)CC2)C1 has an AUC(0-t) of 2010 ng·h/mL (female CB17 SCID mice, KARPAS-422 xenograft, plasma; 25 mg/kg, day 12).
CNc1nc(N)nc2c1ncn2C1OC(CO)C(O)C1(C)F (stereo not drawn): “Cmax, geometric mean” 922 ng/mL (healthy adult humans, plasma; oral, 550 mg once daily, day 6, fasted, given alone).
The distribution half-life of Cc1n[nH]c(C)c1CCCOc1cc(C(=O)NCCCCC(NC(=O)CN2CCN(CC(=O)[O-])CCN(CC(=O)[O-])CCN(CC(=O)[O-])CC2)C(=O)NCC2CCC(C(=O)NC(Cc3ccc4ccccc4c3)C(=O)NCCCCC(NC(=O)NC(CCC(=O)O)C(=O)O)C(=O)O)CC2)ccc1F.[177Lu+3] (stereo not drawn) is reported as 1.64 min (BALB/c mouse, blood; intravenous).
